Experimental data collected from several papers.
Protocols differ between the studies behind these lines. Numbers after ± are the reported error.
Mapk1: Mitogen-activated protein kinase 1 (Mapk1, Rattus norvegicus, UniProt P63086)
Sequence of UniProt P63086 (whole entry, looked up): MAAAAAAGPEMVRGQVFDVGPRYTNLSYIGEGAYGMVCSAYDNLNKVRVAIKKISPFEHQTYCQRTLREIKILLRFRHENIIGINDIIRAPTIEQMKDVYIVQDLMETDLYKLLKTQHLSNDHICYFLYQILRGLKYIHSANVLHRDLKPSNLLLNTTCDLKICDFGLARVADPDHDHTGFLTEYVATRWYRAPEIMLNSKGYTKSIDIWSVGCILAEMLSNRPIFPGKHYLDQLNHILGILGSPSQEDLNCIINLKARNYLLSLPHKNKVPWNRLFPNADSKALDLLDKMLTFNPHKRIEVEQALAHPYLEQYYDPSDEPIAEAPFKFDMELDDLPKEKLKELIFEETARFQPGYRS
DDR1: Epithelial discoidin domain-containing receptor 1 (DDR1, Homo sapiens, UniProt Q08345)
Sequence of UniProt Q08345 (whole entry, looked up): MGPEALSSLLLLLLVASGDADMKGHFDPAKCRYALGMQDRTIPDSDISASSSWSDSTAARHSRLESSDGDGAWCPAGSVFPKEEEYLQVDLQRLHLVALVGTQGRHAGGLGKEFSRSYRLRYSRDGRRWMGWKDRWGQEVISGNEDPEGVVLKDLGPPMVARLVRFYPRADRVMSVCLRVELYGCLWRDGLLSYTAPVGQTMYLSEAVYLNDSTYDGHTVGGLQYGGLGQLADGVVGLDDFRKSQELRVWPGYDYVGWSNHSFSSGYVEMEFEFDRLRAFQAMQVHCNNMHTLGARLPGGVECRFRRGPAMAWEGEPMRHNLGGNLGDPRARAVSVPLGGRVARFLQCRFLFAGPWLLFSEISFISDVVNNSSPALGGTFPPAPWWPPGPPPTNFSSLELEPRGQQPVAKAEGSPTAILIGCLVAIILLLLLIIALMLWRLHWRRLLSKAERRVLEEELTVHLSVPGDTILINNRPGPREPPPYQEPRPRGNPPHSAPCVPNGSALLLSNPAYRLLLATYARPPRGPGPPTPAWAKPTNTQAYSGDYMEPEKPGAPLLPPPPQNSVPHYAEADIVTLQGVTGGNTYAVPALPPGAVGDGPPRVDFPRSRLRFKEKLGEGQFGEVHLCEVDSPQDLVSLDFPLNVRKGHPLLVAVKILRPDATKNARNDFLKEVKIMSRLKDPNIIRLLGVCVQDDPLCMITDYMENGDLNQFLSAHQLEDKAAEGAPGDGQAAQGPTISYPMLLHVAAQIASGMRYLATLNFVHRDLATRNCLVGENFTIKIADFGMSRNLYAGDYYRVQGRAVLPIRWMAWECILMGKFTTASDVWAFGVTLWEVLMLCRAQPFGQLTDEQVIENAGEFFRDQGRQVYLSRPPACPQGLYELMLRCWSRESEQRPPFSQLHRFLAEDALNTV
Sequence of UniProt Q8IY17 (whole entry, looked up): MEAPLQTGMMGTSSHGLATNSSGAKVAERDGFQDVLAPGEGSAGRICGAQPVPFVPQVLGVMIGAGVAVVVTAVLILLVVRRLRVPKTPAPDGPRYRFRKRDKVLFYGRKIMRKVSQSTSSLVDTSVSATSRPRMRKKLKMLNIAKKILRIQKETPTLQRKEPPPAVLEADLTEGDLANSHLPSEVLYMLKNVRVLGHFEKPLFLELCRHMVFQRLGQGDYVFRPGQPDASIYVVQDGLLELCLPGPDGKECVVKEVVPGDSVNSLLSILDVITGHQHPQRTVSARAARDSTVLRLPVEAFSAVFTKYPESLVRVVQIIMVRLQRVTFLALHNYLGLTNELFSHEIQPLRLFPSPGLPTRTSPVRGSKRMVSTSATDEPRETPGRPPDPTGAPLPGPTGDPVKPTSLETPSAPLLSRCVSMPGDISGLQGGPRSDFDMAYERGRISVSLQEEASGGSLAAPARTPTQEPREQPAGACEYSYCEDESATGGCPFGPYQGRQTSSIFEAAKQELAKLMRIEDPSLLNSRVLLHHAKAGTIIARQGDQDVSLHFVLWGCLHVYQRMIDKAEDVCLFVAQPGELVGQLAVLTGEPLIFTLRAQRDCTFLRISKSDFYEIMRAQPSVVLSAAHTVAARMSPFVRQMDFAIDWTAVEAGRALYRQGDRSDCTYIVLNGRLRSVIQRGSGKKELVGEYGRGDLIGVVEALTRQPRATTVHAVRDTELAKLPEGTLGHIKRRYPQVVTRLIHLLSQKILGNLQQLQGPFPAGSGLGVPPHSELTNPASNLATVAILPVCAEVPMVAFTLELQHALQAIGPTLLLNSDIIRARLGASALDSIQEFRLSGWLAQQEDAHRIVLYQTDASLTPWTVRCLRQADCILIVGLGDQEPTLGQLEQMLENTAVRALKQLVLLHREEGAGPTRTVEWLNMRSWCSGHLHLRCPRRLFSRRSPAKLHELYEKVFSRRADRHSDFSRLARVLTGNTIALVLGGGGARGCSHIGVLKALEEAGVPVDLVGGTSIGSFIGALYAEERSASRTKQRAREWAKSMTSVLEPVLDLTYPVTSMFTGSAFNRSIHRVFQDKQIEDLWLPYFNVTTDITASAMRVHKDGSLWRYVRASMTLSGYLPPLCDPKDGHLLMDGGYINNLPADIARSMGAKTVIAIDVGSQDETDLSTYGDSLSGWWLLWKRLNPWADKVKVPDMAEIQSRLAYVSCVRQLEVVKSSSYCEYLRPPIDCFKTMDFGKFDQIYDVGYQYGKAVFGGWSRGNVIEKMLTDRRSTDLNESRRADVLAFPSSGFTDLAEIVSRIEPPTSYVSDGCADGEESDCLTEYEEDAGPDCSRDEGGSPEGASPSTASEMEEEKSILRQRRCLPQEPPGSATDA
Sequence of UniProt P20273 (whole entry, looked up): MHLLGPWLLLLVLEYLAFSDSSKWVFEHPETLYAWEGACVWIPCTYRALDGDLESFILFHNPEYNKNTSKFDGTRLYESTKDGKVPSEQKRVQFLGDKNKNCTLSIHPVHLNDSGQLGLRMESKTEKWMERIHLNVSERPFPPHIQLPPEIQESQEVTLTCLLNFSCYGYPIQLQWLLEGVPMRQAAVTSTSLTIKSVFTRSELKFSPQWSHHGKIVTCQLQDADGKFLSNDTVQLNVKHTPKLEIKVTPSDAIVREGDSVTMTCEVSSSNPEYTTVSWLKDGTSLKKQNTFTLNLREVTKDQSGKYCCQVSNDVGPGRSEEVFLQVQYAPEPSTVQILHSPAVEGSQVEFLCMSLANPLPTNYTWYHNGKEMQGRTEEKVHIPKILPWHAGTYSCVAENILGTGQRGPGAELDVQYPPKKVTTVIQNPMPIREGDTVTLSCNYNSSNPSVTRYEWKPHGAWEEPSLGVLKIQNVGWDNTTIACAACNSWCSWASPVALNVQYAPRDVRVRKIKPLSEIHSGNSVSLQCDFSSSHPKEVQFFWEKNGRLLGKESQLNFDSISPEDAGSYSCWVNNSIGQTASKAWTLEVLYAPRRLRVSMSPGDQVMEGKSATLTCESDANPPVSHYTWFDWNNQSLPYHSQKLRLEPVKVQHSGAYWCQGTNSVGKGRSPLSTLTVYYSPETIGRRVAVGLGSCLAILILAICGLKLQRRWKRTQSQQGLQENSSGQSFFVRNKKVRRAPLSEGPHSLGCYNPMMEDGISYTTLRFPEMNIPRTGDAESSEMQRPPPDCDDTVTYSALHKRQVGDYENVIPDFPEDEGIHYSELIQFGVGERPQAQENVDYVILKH
Sequence of UniProt Q8WWR8 (whole entry, looked up): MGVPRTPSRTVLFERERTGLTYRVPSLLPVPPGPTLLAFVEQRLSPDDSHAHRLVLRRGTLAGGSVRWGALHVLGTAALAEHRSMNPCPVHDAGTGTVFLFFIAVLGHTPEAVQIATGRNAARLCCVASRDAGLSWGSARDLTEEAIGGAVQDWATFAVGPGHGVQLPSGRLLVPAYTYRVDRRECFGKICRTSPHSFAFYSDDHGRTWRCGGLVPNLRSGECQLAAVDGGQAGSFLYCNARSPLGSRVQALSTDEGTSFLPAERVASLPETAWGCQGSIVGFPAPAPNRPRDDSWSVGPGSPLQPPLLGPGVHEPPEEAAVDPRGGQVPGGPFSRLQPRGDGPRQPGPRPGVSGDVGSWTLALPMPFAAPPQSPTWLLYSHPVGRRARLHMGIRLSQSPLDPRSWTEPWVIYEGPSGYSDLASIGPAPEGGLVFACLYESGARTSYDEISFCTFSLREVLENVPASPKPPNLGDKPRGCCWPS
Sequence of UniProt P14416 (whole entry, looked up): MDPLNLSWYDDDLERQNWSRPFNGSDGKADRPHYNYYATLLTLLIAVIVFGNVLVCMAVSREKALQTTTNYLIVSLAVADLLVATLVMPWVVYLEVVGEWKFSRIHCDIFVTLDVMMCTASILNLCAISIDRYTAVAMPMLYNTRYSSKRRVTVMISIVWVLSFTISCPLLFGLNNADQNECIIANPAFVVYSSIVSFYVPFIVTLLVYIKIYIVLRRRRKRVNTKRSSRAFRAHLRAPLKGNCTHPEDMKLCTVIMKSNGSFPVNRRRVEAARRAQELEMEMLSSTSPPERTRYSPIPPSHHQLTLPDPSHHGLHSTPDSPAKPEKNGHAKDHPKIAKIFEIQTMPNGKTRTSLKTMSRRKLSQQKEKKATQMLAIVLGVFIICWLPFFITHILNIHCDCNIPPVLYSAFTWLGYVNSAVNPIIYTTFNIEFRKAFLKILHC

Structure (SMILES) | target or system | assay | test system | setting | scale | quantity | result
O=C1NC2(CC2)COc2ncc(F)cc2[C@H]2COCCN2c2ccn3ncc1c3n2 |  |  | Sprague-Dawley rat, male, blood | oral, 5 mg/kg/day, end of treatment, 4-week repeated-dose toxicity | relative to: red blood cells | reticulocytes | 1.45 ± 0.51%
CC[C@H](C)[C@H](NC(=O)[C@H](CC(C)C)NC(=O)[C@H](CCCCN)NC(=O)[C@H](CCC(=O)O)NC(=O)[C@H](CCCCN)NC(=O)[C@H](CCCNC(=N)N)NC(=O)[C@@H]1CCCN1C(=O)[C@H](CCCNC(=N)N)NC(=O)[C@H](CCC(N)=O)NC(=O)[C@H](CCCCN)NC(=O)[C@@H]1CCCN1C(=O)[C@H](C)NC(=O)[C@@H](N)Cc1ccc(O)cc1)C(=O)N[C@H](C(=O)N1CCC[C@H]1C(=O)N[C@H](C(=O)O)[C@@H](C)O)[C@@H](C)CC | Mapk1 | enzyme activity, inhibitor, fluorescence |  | pH 7.4 |  | IC50 | 163 µM
N#Cc1c(Cl)ccc2c1C1(CCN(C(=O)c3cnc4[nH]ncc4c3)CC1)C(=O)N2CC(=O)NCC(F)(F)F | DDR1 | ligand displacement |  |  |  | IC50 | 0.038 µM
CC(C)(C)C(=O)OCOP(=O)(OCOC(=O)C(C)(C)C)C1CCCN(O)C1=O (stereo not drawn) | SF-539 |  |  |  |  | TGI | 11.8 µM
CS(C)(=O)=Nc1ccc(-c2ccc(-c3nc4cc(O[C@@H]5CO[C@H]6[C@@H]5OC[C@H]6O)[nH]c4cc3F)cc2)cc1 | DDR1 | enzyme activity, inhibitor |  | 10 µM |  | inhibition | -12%
CC[C@H](C)[C@H](NC(=O)[C@@H](NC(=O)[C@H](CC(C)C)NC(=O)[C@H](CCCCN)NC(=O)[C@H](CCCCN)NC(=O)[C@H](Cc1c[nH]cn1)NC(=O)[C@@H](NC(=O)[C@H](CCCNC(=N)N)NC(=O)[C@H](CCCCN)NC(=O)[C@H](CC(C)C)NC(=O)[C@H](CCC(N)=O)NC(=O)[C@H](CCCCN)NC(=O)[C@H](C)NC(=O)[C@@H](N)Cc1ccc(O)cc1)[C@@H](C)O)[C@@H](C)O)C(=O)N[C@@H](CC(N)=O)C(=O)N1CCC[C@H]1C(=O)O | Mapk1 | enzyme activity, inhibitor, fluorescence |  | pH 7.4 |  | IC50 | 68.2 µM
Cc1nc(N2CCC(N(C)c3cc(C(=O)NCCN4CCCC4)cnn3)CC2)nc(C)c1CC(C)C | Cytochrome P450 1A2 (CYP1A2, Homo sapiens, UniProt P05177) | enzyme activity, inhibitor |  |  |  | IC50 | > 30 µM
COc1ccccc1-c1n[nH]c2nc(NC3CCN(C(=O)Cc4ccc(F)cc4F)CC3)ncc12 |  | bead binding, competition bead pull-down, item: LINJ.32.0800 | Leishmania donovani axenic amastigote extract | 10 µM | relative to: vehicle | relative abundance | 0.11
O=C(O)C1=C[C@H](O)[C@@H](NC(=O)c2ccc(-c3ccccc3)cc2)[C@H]([C@H](O)[C@H](O)CO)O1 | Sialidase-4 (Homo sapiens, UniProt Q8WWR8) | enzyme activity, inhibitor |  |  |  | IC50 | > 500 µM
O=C(O)CCn1c(=O)oc2cc(Cl)c(Cl)cc21 | D(2) dopamine receptor (DRD2, Homo sapiens, UniProt P14416) | antagonist |  | median value |  | IC50 | > 100 µM
O=C(CF)N[C@H]1[C@H]([C@H](O)[C@H](O)CNC(=O)c2ccc(Oc3ccccc3)cc2)O[C@@](OCc2cccc(Cl)c2Cl)(C(=O)O)C[C@@H]1O | B-cell receptor CD22 (CD22, Homo sapiens, UniProt P20273) | ligand binding, inhibitor, competitive bead binding flow cytometry |  | together with: 6'SLN(Gc)-PAA-biotin beads |  | IC50 | 1.01 ± 0.02 µM
CCCC(N)P(=O)(Oc1ccccc1)Oc1ccccc1 (stereo not drawn) | Patatin-like phospholipase domain-containing protein 6 (PNPLA6, Homo sapiens, UniProt Q8IY17) |  |  |  |  | IC50 | 14.4 µM

Excerpt of the above:
Structure (SMILES) | target or system | assay | test system | setting | scale | quantity | result
CC[C@H](C)[C@H](NC(=O)[C@H](CC(C)C)NC(=O)[C@H](CCCCN)NC(=O)[C@H](CCC(=O)O)NC(=O)[C@H](CCCCN)NC(=O)[C@H](CCCNC(=N)N)NC(=O)[C@@H]1CCCN1C(=O)[C@H](CCCNC(=N)N)NC(=O)[C@H](CCC(N)=O)NC(=O)[C@H](CCCCN)NC(=O)[C@@H]1CCCN1C(=O)[C@H](C)NC(=O)[C@@H](N)Cc1ccc(O)cc1)C(=O)N[C@H](C(=O)N1CCC[C@H]1C(=O)N[C@H](C(=O)O)[C@@H](C)O)[C@@H](C)CC | Mapk1 | enzyme activity, inhibitor, fluorescence |  | pH 7.4 |  | IC50 | 163 µM
CC[C@H](C)[C@H](NC(=O)[C@@H](NC(=O)[C@H](CC(C)C)NC(=O)[C@H](CCCCN)NC(=O)[C@H](CCCCN)NC(=O)[C@H](Cc1c[nH]cn1)NC(=O)[C@@H](NC(=O)[C@H](CCCNC(=N)N)NC(=O)[C@H](CCCCN)NC(=O)[C@H](CC(C)C)NC(=O)[C@H](CCC(N)=O)NC(=O)[C@H](CCCCN)NC(=O)[C@H](C)NC(=O)[C@@H](N)Cc1ccc(O)cc1)[C@@H](C)O)[C@@H](C)O)C(=O)N[C@@H](CC(N)=O)C(=O)N1CCC[C@H]1C(=O)O | Mapk1 | enzyme activity, inhibitor, fluorescence |  | pH 7.4 |  | IC50 | 68.2 µM
